Assay results pooled from the literature.
Compare with care: the assays were run in different laboratories. “And” joins repeats or separate records; there may be more than shown. ± marks the error that the study gave. In brackets after ≈: the same amount, converted by molar mass.
UniProt P23443, sequence (whole entry, looked up): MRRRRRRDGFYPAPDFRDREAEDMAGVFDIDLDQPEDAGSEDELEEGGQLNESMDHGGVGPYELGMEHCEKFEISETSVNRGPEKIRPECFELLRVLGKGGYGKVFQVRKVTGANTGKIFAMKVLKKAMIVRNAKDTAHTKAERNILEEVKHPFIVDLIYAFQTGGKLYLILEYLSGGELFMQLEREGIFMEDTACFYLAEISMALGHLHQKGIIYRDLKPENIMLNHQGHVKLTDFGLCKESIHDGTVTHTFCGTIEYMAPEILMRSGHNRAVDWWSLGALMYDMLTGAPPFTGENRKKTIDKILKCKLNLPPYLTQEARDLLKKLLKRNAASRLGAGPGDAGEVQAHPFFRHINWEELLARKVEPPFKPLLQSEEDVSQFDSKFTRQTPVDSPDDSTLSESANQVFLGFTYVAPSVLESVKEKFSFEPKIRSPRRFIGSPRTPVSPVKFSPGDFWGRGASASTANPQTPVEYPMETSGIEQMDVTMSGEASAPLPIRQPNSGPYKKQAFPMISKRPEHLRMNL
UniProt P25911, sequence (whole entry, looked up): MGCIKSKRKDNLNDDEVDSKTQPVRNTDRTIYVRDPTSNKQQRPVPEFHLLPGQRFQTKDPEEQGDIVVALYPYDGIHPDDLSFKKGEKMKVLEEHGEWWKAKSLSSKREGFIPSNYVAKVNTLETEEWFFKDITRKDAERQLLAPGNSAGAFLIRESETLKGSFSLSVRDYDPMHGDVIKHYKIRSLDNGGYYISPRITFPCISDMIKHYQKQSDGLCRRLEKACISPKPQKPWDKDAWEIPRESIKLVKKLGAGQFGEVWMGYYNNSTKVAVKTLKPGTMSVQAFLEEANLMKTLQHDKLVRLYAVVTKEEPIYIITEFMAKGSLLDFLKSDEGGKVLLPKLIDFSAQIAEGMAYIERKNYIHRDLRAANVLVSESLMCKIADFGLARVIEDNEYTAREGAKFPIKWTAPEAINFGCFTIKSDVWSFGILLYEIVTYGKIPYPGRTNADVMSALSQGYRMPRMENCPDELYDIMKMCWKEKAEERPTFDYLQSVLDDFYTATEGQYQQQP
UniProt P14616, sequence (whole entry, looked up): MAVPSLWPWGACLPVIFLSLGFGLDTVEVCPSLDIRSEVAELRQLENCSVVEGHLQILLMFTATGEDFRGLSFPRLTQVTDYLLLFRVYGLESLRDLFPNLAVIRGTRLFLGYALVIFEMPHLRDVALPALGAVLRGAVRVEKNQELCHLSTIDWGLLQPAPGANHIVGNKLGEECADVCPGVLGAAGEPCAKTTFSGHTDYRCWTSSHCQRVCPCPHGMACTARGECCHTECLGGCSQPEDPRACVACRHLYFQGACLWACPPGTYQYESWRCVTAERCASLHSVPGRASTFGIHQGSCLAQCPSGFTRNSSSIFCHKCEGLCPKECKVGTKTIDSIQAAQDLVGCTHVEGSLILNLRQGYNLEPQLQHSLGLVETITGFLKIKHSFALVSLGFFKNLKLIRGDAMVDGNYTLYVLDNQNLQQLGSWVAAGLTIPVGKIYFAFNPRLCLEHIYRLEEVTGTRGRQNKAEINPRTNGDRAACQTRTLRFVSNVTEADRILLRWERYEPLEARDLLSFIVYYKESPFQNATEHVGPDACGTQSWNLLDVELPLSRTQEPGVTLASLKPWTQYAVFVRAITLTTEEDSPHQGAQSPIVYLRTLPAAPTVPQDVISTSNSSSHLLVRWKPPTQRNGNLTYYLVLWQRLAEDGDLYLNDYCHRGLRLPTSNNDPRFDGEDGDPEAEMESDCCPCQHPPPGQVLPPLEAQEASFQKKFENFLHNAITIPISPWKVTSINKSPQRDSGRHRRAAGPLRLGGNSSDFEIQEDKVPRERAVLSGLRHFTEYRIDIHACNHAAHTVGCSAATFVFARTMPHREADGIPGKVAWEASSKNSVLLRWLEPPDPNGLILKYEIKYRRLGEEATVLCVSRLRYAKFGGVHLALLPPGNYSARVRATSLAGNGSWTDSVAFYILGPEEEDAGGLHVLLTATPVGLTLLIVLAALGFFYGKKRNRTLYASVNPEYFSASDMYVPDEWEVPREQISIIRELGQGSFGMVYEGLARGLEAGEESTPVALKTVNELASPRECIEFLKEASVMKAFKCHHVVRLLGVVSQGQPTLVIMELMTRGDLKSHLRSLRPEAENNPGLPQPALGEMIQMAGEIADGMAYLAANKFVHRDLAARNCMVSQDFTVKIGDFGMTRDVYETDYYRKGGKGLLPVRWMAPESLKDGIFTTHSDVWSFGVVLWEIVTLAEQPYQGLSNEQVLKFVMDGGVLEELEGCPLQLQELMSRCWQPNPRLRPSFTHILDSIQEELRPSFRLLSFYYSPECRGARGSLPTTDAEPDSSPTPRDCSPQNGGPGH
UniProt P22455, sequence (whole entry, unmodified, looked up): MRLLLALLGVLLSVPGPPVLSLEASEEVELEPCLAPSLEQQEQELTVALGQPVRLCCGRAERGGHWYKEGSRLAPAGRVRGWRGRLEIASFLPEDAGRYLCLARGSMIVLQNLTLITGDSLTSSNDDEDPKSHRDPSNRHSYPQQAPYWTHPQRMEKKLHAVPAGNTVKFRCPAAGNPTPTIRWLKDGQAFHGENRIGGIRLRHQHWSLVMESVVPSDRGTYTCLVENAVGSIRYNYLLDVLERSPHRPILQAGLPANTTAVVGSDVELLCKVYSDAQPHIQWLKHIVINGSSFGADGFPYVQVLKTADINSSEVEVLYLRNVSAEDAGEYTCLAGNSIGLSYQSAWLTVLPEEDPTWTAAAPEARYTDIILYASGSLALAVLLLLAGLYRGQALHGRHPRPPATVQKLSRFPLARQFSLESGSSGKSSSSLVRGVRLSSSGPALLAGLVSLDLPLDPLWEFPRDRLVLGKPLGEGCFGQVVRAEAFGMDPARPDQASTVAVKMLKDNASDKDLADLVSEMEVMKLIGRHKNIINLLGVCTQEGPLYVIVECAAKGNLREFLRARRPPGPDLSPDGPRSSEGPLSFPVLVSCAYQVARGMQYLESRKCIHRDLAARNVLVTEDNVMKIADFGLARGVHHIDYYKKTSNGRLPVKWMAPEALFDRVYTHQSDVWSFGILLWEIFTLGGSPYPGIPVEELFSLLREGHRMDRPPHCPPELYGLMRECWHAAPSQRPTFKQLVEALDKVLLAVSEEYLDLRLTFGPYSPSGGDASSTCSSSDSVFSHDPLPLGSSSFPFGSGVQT

CC(C)N1CCCCC1C(=O)NC(Cc1ccc(-c2ccccc2)cc1)B(O)O (stereo not drawn)  clearance (rat, plasma; intravenous, 1 mg/kg): 14.5 mL/min/kg
C#Cc1c(F)ccc2cc(O)cc(-c3ncc4c(N5CC6CCC(C5)N6C(=O)OC(C)OC(=O)C(C)C)nc(OC[C@@]56CCCN5C[C@H](F)C6)nc4c3F)c12 (stereo partly drawn)  compound remaining (chemical stability; simulated intestinal fluid; 1 µM, 30 min): 102%
COc1ccccc1-c1n[nH]c2nc(NC3CCN(C(=O)Cc4ccc(F)cc4F)CC3)ncc12  relative abundance (bead binding, competition bead pull-down, refers to: LINJ.29.0950; Leishmania donovani axenic amastigote extract; 10 µM; relative to: vehicle): 0.91
CC(C)[C@@H]1NC(=O)CNC(=O)[C@H](CC(N)=O)NC(=O)[C@H](CCCNC(=N)N)NC(=O)[C@H](Cc2ccc(O)cc2)NC(=O)[C@H](C(C)C)NC(=O)[C@@H](NC(=O)[C@@H](NC(=O)[C@H](CC(N)=O)NC(=O)[C@H](Cc2c[nH]c3ccccc23)NC(=O)[C@H](C)NC(=O)[C@H](Cc2ccccc2)NC(=O)CNC(=O)[C@H](CCCCN)NC(=O)[C@H](Cc2ccccc2)NC(=O)[C@H](Cc2ccccc2)NC(=O)[C@H](CCCCN)NC(=O)OCC2c3ccccc3-c3ccccc32)C(C)C)CSSC[C@@H](C(=O)N[C@@H](Cc2c[nH]cn2)C(=O)N[C@@H](CCCNC(=N)N)C(=O)N[C@@H](CCCNC(=N)N)C(=O)N[C@@H](C)C(=O)N[C@@H](CC(N)=O)C(N)=O)NC(=O)[C@H](C(C)C)NC(=O)[C@H](CCCNC(=N)N)NC1=O  haematocrit (ICR mice, blood; intraperitoneal, 10 mg/kg, day 5): 40.2 ± 1.22%
COc1cnc2cccc(N3CCc4c(cc(Cn5ccnc5)cc4-c4cn(C)nc4C(F)(F)F)C3=O)c2c1  body weight (BALB/c nude mice, MV4-11 xenograft; intraperitoneal, 100 mg/kg, day 31): 21.7 g and 23.1 g and 22.2 g and 24.2 g and 23.2 g
Cc1cc(-c2ccc3ccccc3c2)nnc1NCCN1CCN(C)CC1  recovery (Caco-2; Caco-2 permeability; basolateral to apical; 5 µM, 0.5 h): 77.7%
CC(=O)N[C@H](C(=O)N[C@@H](CCCC(=O)OC(C)(C)C)C(=O)N[C@@H](CCC1CCCCC1)C(=O)N[C@@H](CC(=O)O)C(=O)COC(=O)c1c(C)cccc1C)C(C)(C)C  blood concentration (C57BL/6N mouse, female, whole blood; intraperitoneal, dose not given, 0.25 h): 313 µM
COc1ccc([C@@H]2CC(=O)c3c(O)cc(O[C@@H]4O[C@H](CO)[C@@H](O)[C@H](O)[C@H]4O[C@@H]4O[C@@H](C)[C@H](O)[C@@H](O)[C@H]4O)cc3O2)cc1O  faecal recovery (male Sprague-Dawley rats, obese, faeces; oral, 100 mg/kg, 48 h; relative to: oral dose): 0.632 ± 0.02%
CC(C)C[C@@H](NC(=O)[C@@H](CCCNC(=N)N)NC(=O)[C@@H](Cc1c[nH]cn1)NC(=O)[C@@H](Cc1c[nH]c2ccccc12)NC(=O)[C@@H](Cc1c[nH]cn1)NC(=O)[C@@H](Cc1ccccc1)NC(=O)[C@H](NC(=O)[C@@H](Cc1ccc(O)cc1)NC(=O)CNC(=O)CNC(=O)CCOCCOCCOCCNC(=O)CN1CCN(CC(=O)O)CCN(CC(=O)O)CC1)[C@H](C)O)C(=O)N[C@H](CC(N)=O)C(=O)N1CCC[C@@H]1C(=O)O [gallium-68 labelled]  absorbed dose (human female, from C57BL/6 mouse, breasts): 0.0103 ± 0.0001 mSv/MBq
CSCC[C@@H]1NC(=O)[C@H](C(C)C)NC(=O)[C@H](CCCNC(=N)N)NC(=O)[C@@H]2CCCN2C(=O)CNC(=O)[C@@H](NC(=O)CNC(=O)[C@H](CO)NC(=O)CNC(=O)[C@H](CO)NC(=S)Nc2ccc(C[C@H]3CN(CC(=O)O)CCN(CC(=O)O)CCN3CC(=O)O)cc2)CSSC[C@@H](C(N)=O)NC(=O)[C@@H]2CCCN2C(=O)CNC(=O)[C@H](CCC(=O)O)NC(=O)[C@H](CC(=O)O)NC(=O)[C@H](CC(=O)O)NC(=O)CNC(=O)[C@H](CC(C)C)NC(=O)[C@H](Cc2c[nH]cn2)NC(=O)[C@H](CC(C)C)NC(=O)CNC(=O)[C@H](Cc2c[nH]cn2)NC1=O [copper-64 labelled]  half-life (dynamic PET; CD rat, myocardial infarction model, left ventricular blood pool; intravenous, 18.5 MBq, 5 to 60 min): 19.4 ± 1.5 min
N#Cc1ccccc1CC(N)C(=O)NC(Cc1ccc(Cl)cc1Cl)C(=O)NC(CC(=O)NCCCc1cccnc1)Cc1ccc(F)cc1 (stereo not drawn)  remaining compound (CD-1 mouse, liver microsomes; 1 µM, time not given, epoxide hydrolase conditions): 85%
Cc1ccccc1-c1ccc(-c2nc(-c3ccc(CN(C)CCCC(=O)O)c([18F])c3)no2)cc1C(F)(F)F  tracer uptake (rat, muscle; 30 min): 0.14 %ID/g
O=C1NC(=O)c2c1c1cc(F)c[n+]3c1c1c2c2cc(O)ccc2[n]1[Ru-4]312([N]=C=S)[S+]3CC[S+]1CC[S+]2CC3 (stereo not drawn)  remaining activity (Lyn (Mus musculus, UniProt P25911); enzyme activity; 100 nM, mouse enzyme, together with: 10 µM ATP; relative to: untreated): 7%
CN(C)[C@H]1C[C@@]23CC[C@@]4(O2)C(=CC[C@]2(C)[C@@H](c5ccc6ccncc6c5)CC[C@H]24)C=C3[C@@H](O)[C@@H]1O  inhibition (RPS6KB1 (Homo sapiens, UniProt P23443); ATP probe labelling, inhibitor, KiNativ profiling; 1 µM): -27.5%
O=C1NC2(CC2)COc2ncc(F)cc2[C@H]2COCCN2c2ccn3ncc1c3n2  organ-to-brain weight ratio (Sprague-Dawley rat, female, ovaries; oral, 2.5 mg/kg/day, 4 weeks dosing, end of recovery): 5.6 ± 0.69%
O=C(O)CC[C@H](NC(=O)[C@H](CCC(=O)O)NC(=O)[C@H](CCC(=O)O)NC(=O)[C@H](CCC(=O)O)NC(=O)[C@H](CCC(=O)O)NC(=O)CNC(=O)[C@H](CCC(=O)O)NC(=O)CNC(=O)[C@H](CCC(=O)O)NC(=O)[C@@H](Cc1ccccc1)NC(=O)[C@@H](Cc1ccccc1)NC(=O)Cc1ccc2ccccc2c1)C(=O)O  first negative CD peak wavelength (circular dichroism; PBS; 500 µM, pH 7, above CMC): 202 nm
CC[C@H](C)[C@H](NC(=O)[C@H](CO)NC(=O)[C@H](Cc1ccc(O)cc1)NC(=O)[C@H](Cc1ccc(O)cc1)NC(=O)[C@H](CC(N)=O)NC(=O)CNC(=O)[C@H](CO)NC(=O)[C@H](Cc1ccc(O)cc1)NC(=O)[C@H](CO)NC(=O)[C@H](CO)NC(=O)[C@H](CC(N)=O)NC(=O)COCCOCCNC(=O)CN1CCN(CC(=O)O)CCN(CC(=O)O)CCN(CC(=O)O)CC1)C(=O)N[C@@H](CC(C)C)C(N)=O [copper-64 labelled]  maximum pancreas uptake (dynamic PET; tamoxifen-induced PDAC mouse model, pancreas; 1.6 min, CLDN4-expressing tumours): 27.3 %IA/cc
CC(C)[C@H](NC(=O)[C@@H](NC(=O)[C@H](CCCNC(=N)N)NC(=O)[C@H](CCCNC(=N)N)NC(=O)[C@H](CCCNC(=N)N)NC(=O)[C@H](CCC(N)=O)NC(=O)[C@H](CCCNC(=N)N)NC(=O)[C@H](CCCNC(=N)N)NC(=O)[C@H](CCCCN)NC(=O)[C@H](CCCCN)NC(=O)[C@H](CCCNC(=N)N)NC(=O)CN)[C@@H](C)O)C(=O)N[C@H](C(=O)N[C@@H](CO)C(=O)N1CCC[C@H]1C(=O)O)[C@@H](C)O  organ weight (ICR mice, female, lung; intranasal, 5 mg/kg daily, 4 weeks): 0.361 ± 0.103 g
CC(C)[C@H]1NC(=O)C[C@H]2/C=C/CCSSC[C@@H](NC1=O)C(=O)N[C@H](Cc1cccc3ccccc13)C(=O)NCC(=O)O2  inhibition (FGFR4 (Homo sapiens, UniProt P22455, V550E); enzyme activity, inhibitor; 10 µM): -1.3%
C[C@H](O)[C@@H](NC(=O)[C@H]1CCCN1C(=O)[C@@H](CCCCN)NC(=O)[C@@H](CO)NC(=O)[C@@H](Cc1ccc(O)cc1)NC(=O)[C@@H](CC(N)=O)NC(=O)CCOCCOCCOCCNC(=O)CN1CCN(CC(=O)O)CCN(CC(=O)O)CCN(CC(=O)O)CC1)C(=O)N[C@H](CC(=O)O)C(=O)N[C@H](CCCNC(=N)N)C(=O)N[C@H](CCC(N)=O)C(=O)N[C@H](Cc1ccc(O)cc1)C(=O)N[C@H](Cc1c[nH]cn1)C(=O)N[C@H](Cc1ccccc1)C(N)=O [gallium-68 labelled]  tissue uptake (BALB/c nude mice U-87 MG tumour, kidney; intravenous, 1.85 MBq, 0.5 h, radiolabelled): 16.1 ± 1.51 %ID/g
CC1COC2=C1C(=O)C(=O)c1c2ccc2c1C(OC(=O)CNC(=O)C(N)CCC(=O)O)CCC2(C)C (mixture of isomers)  equilibrium solubility (saline with 20% PEG 400; 24 h, 25 °C): 8010 µg/mL
C=Cc1c(C)c2cc3nc(c(CC(=O)[O-])c4[n-]c(cc5nc(cc1[n-]2)C(C)=C5CC)c(C)c4C(=O)[O-])C(CCC(=O)[O-])C3C.[Cu+2].[Na+].[Na+].[Na+] (stereo not drawn)  serum ALT (Wistar rat, female; oral, 250 mg/kg daily, 28 days): 35.2 ± 7.83 U/L
CS(C)(=O)=Nc1ccc(-c2ccc(-c3nc4cc(O[C@@H]5CO[C@H]6[C@@H]5OC[C@H]6O)[nH]c4cc3F)cc2)cc1  inhibition (INSRR (Homo sapiens, UniProt P14616); enzyme activity, inhibitor; 10 µM): -4%
CC(C)(C)C(=O)OCOP(=O)(OCOC(=O)C(C)(C)C)C1CCCN(O)C1=O (stereo not drawn)  TGI (A549): > 100 µM
CC[C@H](C)[C@H](NC(=O)[C@H](CCCCN)NC(=O)CNC(=O)[C@H](CC(C)C)NC(=O)[C@H](Cc1ccccc1)NC(=O)[C@H](CCCCN)NC(=O)[C@H](CO)NC(=O)[C@H](Cc1ccccc1)NC(=O)[C@H](Cc1c[nH]c2ccccc12)NC(=O)[C@H](CCC(N)=O)NC(=O)[C@@H](NC(=O)[C@H](Cc1ccccc1)NC(=O)CCCCCNC(=O)CN1CCN(CC(=O)O)CCN(CC(=O)O)CCN(CC(=O)O)CC1)C(C)C)C(=O)N[C@@H](CCC(=O)O)C(=O)N1CCC[C@H]1C(=O)N[C@@H](CC(=O)O)C(=O)N[C@H](C(=O)N[C@@H](CO)C(=O)N[C@@H](CCC(N)=O)C(=O)N[C@H](C(=O)N[C@@H](CCC(N)=O)C(=O)N[C@@H](CC(=O)O)C(=O)N1CCC[C@H]1C(=O)N[C@@H](CC(N)=O)C(=O)N[C@@H](CC(=O)O)C(=O)N[C@@H](CCC(N)=O)C(=O)N[C@@H](Cc1ccc(O)cc1)C(=O)N[C@@H](CCC(=O)O)C(=O)N1CCC[C@H]1C(=O)N[C@@H](Cc1ccccc1)C(=O)O)C(C)C)C(C)C [copper-64 labelled]  tissue uptake (GZMB-/- mice, CT26 tumour-bearing, large intestine; 2 h, checkpoint inhibitor-treated): 2.61 ± 0.5 %ID/g
O=P1(O)CC=Cc2cc(-c3cccc(F)c3)ccc2O1  kinetic solubility (HPLC-UV; 50 mM PBS; 16 h, pH 7.4, 25 °C, upper limit 2.5 mg/mL): 2260 µg/mL (≈ 7.79 mM)
Cc1ccc(NS(=O)(=O)c2c(C(=O)N3CCCCCC3)c(C)n(C)c2C)c(Cl)c1  viability (human cells; 1.235 µM, 60 h): 97.6%

Some of these lines once more:
CN(C)[C@H]1C[C@@]23CC[C@@]4(O2)C(=CC[C@]2(C)[C@@H](c5ccc6ccncc6c5)CC[C@H]24)C=C3[C@@H](O)[C@@H]1O  inhibition (RPS6KB1 (Homo sapiens, UniProt P23443); ATP probe labelling, inhibitor, KiNativ profiling; 1 µM): -27.5%
C[C@H](O)[C@@H](NC(=O)[C@H]1CCCN1C(=O)[C@@H](CCCCN)NC(=O)[C@@H](CO)NC(=O)[C@@H](Cc1ccc(O)cc1)NC(=O)[C@@H](CC(N)=O)NC(=O)CCOCCOCCOCCNC(=O)CN1CCN(CC(=O)O)CCN(CC(=O)O)CCN(CC(=O)O)CC1)C(=O)N[C@H](CC(=O)O)C(=O)N[C@H](CCCNC(=N)N)C(=O)N[C@H](CCC(N)=O)C(=O)N[C@H](Cc1ccc(O)cc1)C(=O)N[C@H](Cc1c[nH]cn1)C(=O)N[C@H](Cc1ccccc1)C(N)=O [gallium-68 labelled]  tissue uptake (BALB/c nude mice U-87 MG tumour, kidney; intravenous, 1.85 MBq, 0.5 h, radiolabelled): 16.1 ± 1.51 %ID/g
